Published values gathered from unrelated publications.
Numbered parts are unrelated; each lists some results of a single study.

Sample 1
Target: Interferon regulatory factor 7, full length, phosphomimetic (IRF7, Homo sapiens, UniProt Q92985, residues 1-503, S101K/S471D/S472D/S475D/S476D/S477D/S483D/S484D/S487D)
Sequence of UniProt Q92985 (whole entry, unmodified, looked up): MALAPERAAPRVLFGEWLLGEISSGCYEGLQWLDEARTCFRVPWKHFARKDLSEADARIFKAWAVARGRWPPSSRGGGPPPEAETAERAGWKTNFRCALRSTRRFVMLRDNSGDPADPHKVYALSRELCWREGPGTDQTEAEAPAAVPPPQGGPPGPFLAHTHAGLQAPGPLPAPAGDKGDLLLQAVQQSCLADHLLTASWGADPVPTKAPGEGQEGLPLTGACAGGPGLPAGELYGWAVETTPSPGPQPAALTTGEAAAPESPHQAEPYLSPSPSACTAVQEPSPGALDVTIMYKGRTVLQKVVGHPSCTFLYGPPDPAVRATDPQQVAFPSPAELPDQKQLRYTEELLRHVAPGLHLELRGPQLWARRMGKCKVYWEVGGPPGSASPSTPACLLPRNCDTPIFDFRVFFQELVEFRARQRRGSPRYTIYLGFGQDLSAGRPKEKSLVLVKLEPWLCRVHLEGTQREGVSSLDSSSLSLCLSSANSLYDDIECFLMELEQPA
Method: protein-binding microarray
Molecule type: double-stranded DNA, one strand shown
Sample: in vitro
Concentration: 250 nM
Notes: 60-bp whole probe
Added: salmon DNA 0.4 mg/ml
Baseline: random background probes
Direction: higher = stronger binding
Constant ends, left off below: GCCTAGCAC … GTCTTGATTCGCTTGACGCTGCTG
`TTATGTATCGGGTTTCGGTTAGTGCTA` has a log fluorescence of 6.37 z-score.
For `TCAGATGTGTATATGACACTGTGCTAG`, the log fluorescence was -0.489 z-score.
For `GACGATCTCACTCTCGAGACGTGCTAG`, the log fluorescence was 0.211 z-score.
For `TCAGGTATCGGTTTCGGTTAGTGCTAG`, the log fluorescence was 10.8 z-score.
With `TCATAACTTATTCTCTAACTGTGCTAG` the log fluorescence was 0.505 z-score.
The log fluorescence of `GACGGTTTGGGTTTCGGGACGTGCTAG` is reported as 2.04 z-score.
`TCACCTCTAGGAATGTAACTGTGCTAG` gave a log fluorescence of 0.284 z-score.
With `GACGATTACGGGTTTCGAGACGTGCTA` the log fluorescence was 2.85 z-score.
With `GACGGACTGGGGTATCGGGGCGTGCTA` the log fluorescence was -0.595 z-score.
For `TCACTTTCCACTTTCTTACTGTGCTAG`, the log fluorescence was 3.55 z-score.
With `TTAGGACTGGGACTGGGTTTGTGCTAG` the log fluorescence was -0.184 z-score.
The log fluorescence of `TTAAGTTTCCTTTCCCTTTAGTGCTAG` is reported as 5.54 z-score.
`TCAGTTTTCTTTTCCATTTTGTGCTAG` gave a log fluorescence of 5.18 z-score.
For `GTGTTTTGCCCTATTTAAGAGTGCTAG`, the log fluorescence was 2.31 z-score.
The log fluorescence of `TTAGAGATCAGTTTCGATTAGTGCTAG` is reported as 8.16 z-score.
The log fluorescence of `GACGGGATCGGTCTCGGGACGTGCTAG` is reported as -0.00626 z-score.

Sample 2
Target: Microphthalmia-associated transcription factor, full length (MITF, Homo sapiens, UniProt O75030-10, residues 1-413)
Method: protein-binding microarray
Molecule type: hairpin DNA
Sample: in vitro
Concentration: not given
Notes: whole hairpin DNA, median over replicate spots
Baseline: not given
Direction: higher = stronger binding
`CACTTAGCACCTGATTTTGGTCCTCCAAAATCAGGTGCTAAGTGACACTC (5mC at 11)` has a median fluorescence of 4470 a.u.
`GAGGCCTAGCATGTGCTGCCTCCTGGCAGCACATGCTAGGCCTCACACTC` has a median fluorescence of 10300 a.u.
`CACTTAGCACGTGATTTTGGTCCTCCAAAATCACGTGCTAAGTGACACTC (5mC at 38)` has a median fluorescence of 24200 a.u.
`CACTTAGCACGCGATTTTGGTCCTCCAAAATCGCGTGCTAAGTGACACTC (5mC at 12 32)` gave a median fluorescence of 7090 a.u.
For `CACTTAGCACGTGCGTTTGGTCCTCCAAACGCACGTGCTAAGTGACACTC (5mC at 14)`, the median fluorescence was 18600 a.u.
The median fluorescence of `CACTTAGCACCTGATTTTGGTCCTCCAAAATCAGGTGCTAAGTGACACTC` is reported as 10900 a.u.
`GAGGCCCGGCACGTGCTGCCTCCTGGCAGCACGTGCCGGGCCTCACACTC (5mC at 37)` gave a median fluorescence of 23200 a.u.
`CACTTAGCACATGATTTTGGTCCTCCAAAATCATGTGCTAAGTGACACTC` gave a median fluorescence of 16000 a.u.
`CACTTAGCACGTCGTTTTGGTCCTCCAAAACGACGTGCTAAGTGACACTC (5mC at 31)` gave a median fluorescence of 4760 a.u.
For `GAGGCCTAGCACGTGCTGCCTCCTGGCAGCACGTGCTAGGCCTCACACTC (5mC at 12)`, the median fluorescence was 11700 a.u.
With `GAGGCCTAACACGTGCTGCCTCCTGGCAGCACGTGTTAGGCCTCACACTC` the median fluorescence was 19100 a.u.
With `CACTTGGCACGTGATTTTGGTCCTCCAAAATCACGTGCCAAGTGACACTC (5mC at 39)` the median fluorescence was 24800 a.u.
With `GAGGCCTAGCACGCGCTGCCTCCTGGCAGCGCGTGCTAGGCCTCACACTC (5mC at 14 30)` the median fluorescence was 11000 a.u.
For `GAGGCCTAGCCGGTGCTGCCTCCTGGCAGCACCGGCTAGGCCTCACACTC`, the median fluorescence was 5530 a.u.

Sample 3
Target: RNA binding protein fox-1 homolog 2, RRM domain, GST-SBP tag (RBFOX2, Homo sapiens, UniProt O43251-10, residues 100-194)
Method: RNA Bind-n-Seq
Molecule type: RNA
Sample: in vitro
Concentration: 365 nM
Notes: natural RNA segment, single round, ends assumed
Baseline: no-protein control
Direction: higher = stronger binding
For `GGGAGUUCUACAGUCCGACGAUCGCCUAGGUGUGCUCCAGGUUGCCUGUGGGUUUCCUUUCUGUGAUGGGAUUUAGUGUAGACAUUCUUGCAAAACGGUCACUUUAAAUAAAAUGGGAAAUUGCUGCUCCAUGUGGAAUUCUCGGGUGCCAA`, “RBNS enrichment (R)” read 0.519.
Under “RBNS enrichment (R)”, `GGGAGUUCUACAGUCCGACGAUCUGGGCGGCUGUGGCGUCAGGAUGGAGUCCUAGCUGUGACCUGUGCCCAGGAGGGCGUGAUCCGAGUGAAGCCCCAGGUCUCAGAGAGCAAGCUGUAGCCAGAGGUACCAGUGGAAUUCUCGGGUGCCAA` is recorded as 0.372.
For `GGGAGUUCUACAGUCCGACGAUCUGGCUGUUGAACCUUGAUGUAGCCCCUACUACAUACACUACAAGUUAUGCCUUCUGGCUACUACAGAAUCUCCGCAGACCUUUUAGUUAUGAGUAGAAGCAAUAAGAAGGUGGAAUUCUCGGGUGCCAA`, “RBNS enrichment (R)” read 0.452.
For `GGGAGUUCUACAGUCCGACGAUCCAUGGCAAGCAGGGUGGCCUUGGACUUUGAUUUAGGGGAUCGUGCUUUGGCCUGGAAAAUAAGCACUGGCCUGCAUGCCUAGAACCUGAGUGAAGGCAGUCAACAUCCUAUGGAAUUCUCGGGUGCCAA`, “RBNS enrichment (R)” read 1.7.
`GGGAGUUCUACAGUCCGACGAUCCAGUGCACACACUCCGCAGCUGUGACUCAGCCUUGUGUAGGGUCCCAAAGAAGCAAGCCUUAGAACCGAGCAGGUGAAUCUUAGAGAGUCAGCCAAGGACAGUGCAGAGUUGGAAUUCUCGGGUGCCAA` — result for “RBNS enrichment (R)”: 1.28.
For `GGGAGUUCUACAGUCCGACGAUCAAUUCUGGAAGUGUCUAUGAACUUCCAUAAAUAACUUUAAUUUUAGUAUAAUGAUGGUCUUGGAUUGUCUGACCUCAGUAGCUAUUAAAUAACAUCAAGUAACAUCUGUAUGGAAUUCUCGGGUGCCAA`, “RBNS enrichment (R)” read 1.02.
Under “RBNS enrichment (R)”, `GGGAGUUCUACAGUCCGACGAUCGAUCCACUGAUGGCCCUGGCCCCUGCUGGGGCGGGGCAGGAGGCAGCCCUGCUCCUUGCCUUUUGCAUUGUCAUUCCUCCCCUCUGUCCAGGUCAUUCCUUGGCUAAGCCUGGAAUUCUCGGGUGCCAA` is recorded as 0.478.
Under “RBNS enrichment (R)”, `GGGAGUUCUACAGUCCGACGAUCUUUACUAGGGCUACUUCUGGAAGCCAAAAUAGAAUAGCAUUUCCAUGUGCAUUAAAUACUUUGCCAGCACUGCCUUUGCCAGCAUCCUAAAUCUGGAGUUUUACAAAGAAUGGAAUUCUCGGGUGCCAA` is recorded as 0.364.

Sample 4
Target: RING finger protein unkempt homolog, zinc fingers 1-6, GST-SBP tag (UNK, Homo sapiens, UniProt Q9C0B0, residues 30-357)
Sequence of UniProt Q9C0B0 (30-357, looked up): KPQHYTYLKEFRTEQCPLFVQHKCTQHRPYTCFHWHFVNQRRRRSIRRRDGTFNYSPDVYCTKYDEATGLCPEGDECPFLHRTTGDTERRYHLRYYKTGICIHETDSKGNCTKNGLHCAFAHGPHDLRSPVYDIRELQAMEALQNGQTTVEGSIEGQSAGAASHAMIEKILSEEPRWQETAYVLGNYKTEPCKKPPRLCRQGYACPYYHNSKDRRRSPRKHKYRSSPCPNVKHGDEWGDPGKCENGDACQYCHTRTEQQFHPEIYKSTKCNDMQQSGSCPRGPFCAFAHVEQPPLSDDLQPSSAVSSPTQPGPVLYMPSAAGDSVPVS
Method: RNA Bind-n-Seq
Molecule type: RNA
Sample: in vitro
Concentration: not given
Notes: RNA with constant flanks, ends assumed
Baseline: input RNA pool
Direction: higher = stronger binding
`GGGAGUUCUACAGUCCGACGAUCCCAAAGAAGAUACAGUUUGAAGACAGAAGUGUACUCUCUACAAUGCAAUUUACUGUACAGUCCGAAAGCAAAGUGUUAAAUGGAGAAGAUACUUGUUUUUAUUAAACAUUUUGAGAUUUACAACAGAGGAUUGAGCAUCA` has a bound/input enrichment of 0.144 ratio.
With `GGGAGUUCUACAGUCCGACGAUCUCUUUUGAGGUAGUGGUGCUGGCUGAGCUGUUUGUAGAGAUGCUGCAGAGGGAUUUUGGCUACCGAAUUUAUAAGACGCUGCUGAGCCUUCCAGAAAAAGUUGUGUCUCCUCCUGAACCUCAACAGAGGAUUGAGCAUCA` the bound/input enrichment was 0.138 ratio.
With `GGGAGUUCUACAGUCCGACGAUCUCAUAUCAAACAUUAAAUUUAAAAGUGACCACUCUUAAUUAAAAUUAACUUUUAAAUGUUUACCGGAGUACGUGCUGUGAAGUGAUCUGAAAUUUGUAAUAUUUUUGUCAUGAACCGUACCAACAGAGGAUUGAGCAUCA` the bound/input enrichment was 0.286 ratio.
The bound/input enrichment of `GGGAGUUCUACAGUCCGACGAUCUCAUUUGGGCGUGUCAGAGAGUCGUUACCUGUCAAGUAUCACCUACAGAAUAAGACCGACUCCGUUCAAGAUGUAGAAAUUUCUGUGGAGCCCAGUGAUGCCUUCAUGUUCUCAGGUCUCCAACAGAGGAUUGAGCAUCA` is reported as 0.164 ratio.
`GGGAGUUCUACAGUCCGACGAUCUCCCACUCCUCGGCAGACAUCAACUCCAGUCUUCCUCCGAUGUCCACGUUCCAUCGCCGUGGCACAAACCAUUACAGCACCUCUUCCUGCACACCCCCUGCCAACGGAACAGACAGUAUACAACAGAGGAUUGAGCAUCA` has a bound/input enrichment of 0.417 ratio.
`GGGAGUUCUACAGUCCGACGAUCGAACAAGACAAUGGUGGCACCACAGAAUCUGUCAAAGAACAAGAAAUGAAGUGGACAGACUCCGCCUUACAGUACCUCCAUGAGAAUGUUCCCCCCAUUGGAAACUGACGCUUGGCUCCUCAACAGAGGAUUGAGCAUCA` has a bound/input enrichment of 0.139 ratio.

Some of these lines once more (sample 4):
The bound/input enrichment of `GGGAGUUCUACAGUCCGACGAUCUCAUUUGGGCGUGUCAGAGAGUCGUUACCUGUCAAGUAUCACCUACAGAAUAAGACCGACUCCGUUCAAGAUGUAGAAAUUUCUGUGGAGCCCAGUGAUGCCUUCAUGUUCUCAGGUCUCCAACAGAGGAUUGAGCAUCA` is reported as 0.164 ratio.
With `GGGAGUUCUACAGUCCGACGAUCUCUUUUGAGGUAGUGGUGCUGGCUGAGCUGUUUGUAGAGAUGCUGCAGAGGGAUUUUGGCUACCGAAUUUAUAAGACGCUGCUGAGCCUUCCAGAAAAAGUUGUGUCUCCUCCUGAACCUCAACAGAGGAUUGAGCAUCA` the bound/input enrichment was 0.138 ratio.
`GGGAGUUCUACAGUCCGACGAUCGAACAAGACAAUGGUGGCACCACAGAAUCUGUCAAAGAACAAGAAAUGAAGUGGACAGACUCCGCCUUACAGUACCUCCAUGAGAAUGUUCCCCCCAUUGGAAACUGACGCUUGGCUCCUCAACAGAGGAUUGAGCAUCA` has a bound/input enrichment of 0.139 ratio.
With `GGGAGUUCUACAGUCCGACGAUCUCAUAUCAAACAUUAAAUUUAAAAGUGACCACUCUUAAUUAAAAUUAACUUUUAAAUGUUUACCGGAGUACGUGCUGUGAAGUGAUCUGAAAUUUGUAAUAUUUUUGUCAUGAACCGUACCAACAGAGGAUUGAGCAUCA` the bound/input enrichment was 0.286 ratio.
`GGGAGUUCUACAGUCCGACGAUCCCAAAGAAGAUACAGUUUGAAGACAGAAGUGUACUCUCUACAAUGCAAUUUACUGUACAGUCCGAAAGCAAAGUGUUAAAUGGAGAAGAUACUUGUUUUUAUUAAACAUUUUGAGAUUUACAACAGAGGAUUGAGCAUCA` has a bound/input enrichment of 0.144 ratio.
`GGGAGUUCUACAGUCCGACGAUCUCCCACUCCUCGGCAGACAUCAACUCCAGUCUUCCUCCGAUGUCCACGUUCCAUCGCCGUGGCACAAACCAUUACAGCACCUCUUCCUGCACACCCCCUGCCAACGGAACAGACAGUAUACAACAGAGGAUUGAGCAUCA` has a bound/input enrichment of 0.417 ratio.
